Assay results of several laboratories.
Every numbered part comes from another study and shows a few of its results, in no order. Substitutions count along the parent as printed.

Series 1 — target: UBE2M UBC core domain (UniProt P61081); method: yeast two-hybrid; medium: yeast; setting: mostly zero background; reference: not given; direction: higher = stronger interaction
B1: SH3RF2 RING domain (UniProt Q8TEC5); chain DDLTLLDLLECPVCFEKLDVTAKVLPCQHTFCKPCLQRVFKAHKELRCPECRTPVFSNIEAL
B2: TRAF5 RING domain (UniProt O00463); chain FVERLEERYKCAFCHSVLHNPHQTGCGHRFCQHCILSLRELNTVPICPVDKEVIKSQEVFK
B3: TRIM24 RING domain (UniProt O15164); chain EAARLNLLDTCAVCHQNIQSRAPKLLPCLHSFCQRCLPAPQRYLMLPAPMLGSAETPPPVPAPGSPVSGSSPFATQVGVIRCPVCSQECAERHII
B4: RNF208 RING domain (UniProt Q9H0X6); chain SSAAAGEPLECPTCGHSYNVTQRRPRVLSCLHSVCEQCLQILYESCPKYKFISCPTCRRETVLFTDYG
B5: RNF111 RING domain (UniProt Q6ZNA4); chain EGTEEDTEEKCTICLSILEEGEDVRRLPCMHLFHQVCVDQWLITNKKCPICRVDIEAQLPSE
B6: TRIM13 RING domain (UniProt O60858); chain MELLEEDLTCPICCSLFDDPRVLPCSHNFCKKCLEGILEGSVRNSLWRPAPFKCPTCRKETSATGINS
B7: RC3H1 RING domain (UniProt Q5TC82); chain QAPQWTDFLSCPICTQTFDETIRKPISLGCGHTVCKMCLNKLHRKACPFDQTTINTDIELL
Target sequence (chain): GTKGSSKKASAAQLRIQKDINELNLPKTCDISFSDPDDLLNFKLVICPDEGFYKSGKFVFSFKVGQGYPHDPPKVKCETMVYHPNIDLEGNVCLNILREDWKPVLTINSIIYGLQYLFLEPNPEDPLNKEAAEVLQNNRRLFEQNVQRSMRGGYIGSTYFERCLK
Molecule | lacZ reporter activity
B1 (SH3RF2 RING domain) | 0
B2 (TRAF5 RING domain) | 0
ASLPTSEEDLCPICYAHPISAVFQPCGHKSCKACINQHLMNNKDCFFCKTTIVSVEDWE (RNF123 RING domain (UniProt Q5XPI4)) | 0
B3 (TRIM24 RING domain) | 0
B4 (RNF208 RING domain) | 0
B5 (RNF111 RING domain) | 0
QVDKAVFHMQSVKCLKCQEQKRAVLPCQHAALCELCAEGSECPICQPGRAHTLQS (UNK RING domain (UniProt Q9C0B0)) | 0
B6 (TRIM13 RING domain) | 0
FQGDVDEDLICPICSGVLEEPVQAPHCEHAFCNACITQWFSQQQTCPVDRSVVTVAHLRP (RNF41 RING domain (UniProt Q9H4P4)) | 0
B7 (RC3H1 RING domain) | 0
PAELEVQASECVVCLEREAQMIFLNCGHVCCCQQCCQPLRTCPLCRQDIAQRLRIY (LRSAM1 RING domain (UniProt Q6UWE0)) | 0
VEPSEENSKDCVVCQNGTVNWVLLPCRHTCLCDGCVKYFQQCPMCRQFVQESFALC (CGRRF1 RING domain (UniProt Q99675)) | 0

Series 2 — method: RNA Bind-n-Seq; form: RNA; medium: in vitro; concentration: not given; reference: input RNA pool; direction: higher = stronger binding
Target: RING finger protein unkempt homolog, zinc fingers 1-6, GST-SBP tag (UNK, Homo sapiens, UniProt Q9C0B0, residues 30-357)
Setting: RNA with constant flanks, human and mouse sites, ends assumed
All sequences stand within: GGGAGUUCUACAGUCCGACGAUC … CAACAGAGGAUUGAGCAUCA
Sequence | bound/input enrichment [ratio]
AGUUGGCGCUUCAGCAGCUGAAUGCCGUUGCCUCACAUGGUUCAACACCACCUUAUACUUUAUUAAAUCAGGCUUUCUUGAAAAUAGCCAUGUCGAGACCCAGGUUUAAUCCUCGAGGAG | 0.347
GGCUCCCAUUGUCUCCGCAGAUGCCUCCUGGUCCUGCUACGGUGCUGGGGUUGUUCAGUUUUAGGGGACACGCUCCUAUUCUUUUCUUCGAGACGUCCCGCGGCCGAGAACGGGGUUCUA | 0.119
UUUUAUGGCAUGUAAUGGUGUUUGGUAAUAUUUUAAUGUAGAAUUUGAUUAUUUCAGCAAUAGUAAUUUUGAGAUAUUCUUUGAAUGAAAAGUGUCUUCGUUUCUAUGAUACAGGUCAUU | 4.08
GGCAACACUCCUUGCAGAUCCAGAAACUGAGGCACAAUAGGGUUAUGACUUGCUCAAGAAUAUGUAGCUGCUAGGGGGUAAAUCAAGGCAUCACAAUUUCUGUUCAGCGGGCAGGAAUAG | 2.61
AUUGCAAAAAAUGUAUCUACCUCCAAACCUGAGUUUGAAUUUACCACACUGGACUUUCCUGAACUGCAAGGUGCAGAGAACAAUAUGUCAGAGAUACAGAAGCAACCCAAGUGGGGACCU | 0.207
AGAAAGAUGGAAGAAAAAUACCAACUAACAGCACGAUUGAACAUGGAACAGCUGCUUCAGUCUGCAAGUAUGGAGCUCAAGUUCUUAAUUAUUCAGAAUGCUGCGGUUUUCCAAGAGGCC | 0.12
UUAUUUUGGUUGGUCUCCGAGACUACCAGGAUAACAAAGCUGAUGUAAUUUUAAAAUACAAUGCAGACGAAGCUAGAAGUCUGAAGGCAUACGGCGAGCUUCCAGAGCAUGCUAAAAUCA | 0.13
AGACUCCGCUUCCGUUUUCCUGAGCUCCUCGGGCCCCAGAGUCUCUGUUUGAUUAUUUAUUUAUUUAUUUAUUUAUUUGCCAAAAAUUCUCCUCUUCAACUUAUAGAAUGCACCUAAUAA | 27
GGGGGCGGGUGGAGGGUAGGAUUUGUGCUGGAUGAGGCCGCUGCUUCCUCGGACCCCAGAACUAGGACUUGGCCACGUUGCAGCCCCCGUUCGGGUAACGUUUUUCUUCACGCCGCAGCC | 0.522
GCAAGAAUUGAUGCUGUGAAUGCUGAGACAAUUCGAGAAGUAUGUACCAAAUACAUUUAUAAUAGGAGUCCAGCUAUUGCUGCUGUUGGUCCCAUUAAGCAACUACCAGAUUUUAAACAG | 0.407
AUCAGAGCUGAAGCCUCCGGGUGGGUUUUUAAUCCCUUCCUCUUCCUUUCAUCUACCUGUCCUCUCAGCUCCAGCCAGACAGCAUGGAACCACAGGUUACUCUAAAUGUGACUUUUAAAA | 0.234

Series 3 — target: CCNB2, cyclin fold, Cln2 fusion (human); method: yeast growth competition, sequencing; medium: yeast; setting: weak parent motif; reference: not given; direction: higher = stronger binding
Starting sequence: FOXM1 docking peptide (human); PHLARPIKVESPP; partner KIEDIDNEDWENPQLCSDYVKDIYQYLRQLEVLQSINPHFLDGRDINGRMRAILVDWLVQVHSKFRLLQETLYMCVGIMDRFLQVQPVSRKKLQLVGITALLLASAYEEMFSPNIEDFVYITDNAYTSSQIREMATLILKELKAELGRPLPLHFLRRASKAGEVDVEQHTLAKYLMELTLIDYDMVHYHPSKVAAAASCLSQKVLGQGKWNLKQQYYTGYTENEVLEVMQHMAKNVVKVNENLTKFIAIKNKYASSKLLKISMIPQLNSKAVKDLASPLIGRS
Variant | normalised enrichment score
PHLARPIKAESPP [V9A] | 0.000659
PHLARPIKVASPP [E10A] | -0.778
PHLARAIKVESPP [P6A] | -0.452
PHLARPAKVESPP [I7A] | -0.736
PHAARPIKVESPP [L3A] | 0.00176
PHLAAPIKVESPP [R5A] | -1.03

Series 4 — method: RNA Bind-n-Seq; form: RNA; medium: in vitro; concentration: 1 µM; setting: whole 134-nt RNA, ends assumed; added: 150 mM KCl; reference: input library; direction: higher = stronger binding
Target: Ras GTPase-activating protein-binding protein 1, C-terminal RGG region (G3BP1, Homo sapiens, UniProt Q13283)
Chain of UniProt Q13283 (whole entry, looked up): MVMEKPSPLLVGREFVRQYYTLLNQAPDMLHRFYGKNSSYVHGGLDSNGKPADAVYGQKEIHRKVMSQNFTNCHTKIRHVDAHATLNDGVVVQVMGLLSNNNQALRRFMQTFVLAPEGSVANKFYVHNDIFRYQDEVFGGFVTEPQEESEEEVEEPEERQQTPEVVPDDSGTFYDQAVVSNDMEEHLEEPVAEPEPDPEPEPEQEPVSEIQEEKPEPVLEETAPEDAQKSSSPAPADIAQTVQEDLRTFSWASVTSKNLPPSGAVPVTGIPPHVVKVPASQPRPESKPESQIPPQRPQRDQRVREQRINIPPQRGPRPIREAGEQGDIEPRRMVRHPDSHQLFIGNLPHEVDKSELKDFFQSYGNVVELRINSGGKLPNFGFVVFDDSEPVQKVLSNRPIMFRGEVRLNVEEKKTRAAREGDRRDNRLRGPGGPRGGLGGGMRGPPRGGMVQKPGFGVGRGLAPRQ
All sequences stand within: GGGAGUUCUACAGUCCGACGAUC … UGGAAUUCUCGGGUGUCAAGG
Sequence | log2 enrichment
CCUGUGCUACACAUCGUAUGUACCGAAUCGGUUUUUUUGGUUUUUUUGGGUUUUUUUGGGGAAAGUAUUAUGUUACGCCGUUCGGAUCUG | -1.95
CUGUGCUACACAUCGUAUGUACCGAAUCGGGAAAAAAGGGGAAAAAAGGGGAAAAAAGGGGAAAGUAUUAUGUUACGCCGUUCGGAUCUG | -0.743
GUCCUGUGCUACACAUCGUAUGUACCGAAUCAAAUUUUUAAACCCCCAAACCCCCAAAAAAGUAUUAUGUUACGCCGUUCGGAUCUGCAC | -0.901
UCCUGUGCUACACAUCGUAUGUACCGAAUCGGGGUUUUUUUGGGGAAAGGGGAAAGGGGAAAGUAUUAUGUUACGCCGUUCGGAUCUGCA | 1.99
UGAGUAGAUCUAGAAAUGACAGUAUGACUUUGUUUCUAACAGCUCCAAAAUGGAUCAAAAUGUUUGUUUUGGAUGAAGCAGAUGAAAUGU | -2.83
CUCAAGUCCUGUGCUACACAUCGUAUGUACCGAAUCGGUUUUUUUGGUGGAGGAAAGUAUUAUGUUACGCCGUUCGGAUCUGCACUUCCA | -1.23
UCAAGUCCUGUGCUACACAUCGUAUGUACCGAAUCGGGAAAGGGAAAGGAAAGGAAAGUAUUAUGUUACGCCGUUCGGAUCUGCACUUCC | -1.54
CACAGACAACACGCACCCACACAGACACAGAGGGAAGGGGUUGGGAUGGGGACAGGGUGCUCAGCAGGGCGGGGUAGGACCCCAGCCCCU | -0.869
CUCAAGUCCUGUGCUACACAUCGUAUGUACCGAAUCGGUUUGGAAAAAGGUGGAAAGUAUUAUGUUACGCCGUUCGGAUCUGCACUUCCA | -0.966
ACCAUGCAGGUGGGCAUCUUUGGGAAGUGAGGCAAGGGGGGGAUAGGGAGGGGGGUAACACUUUGGGAACAGGUGGUCCCAGGUCGUUUC | -1.21
ACCAUACAGGUGGGCAUCUUUGGGAAGUGGGGCAAGGGGGGGAUAGGGAGGGGGGUAACACUUUGGGAACAGGUGGUCCCAGGUCGUUUC | -1.09
AGUCCUGUGCUACACAUCGUAUGUACCGAAUCGGGGUGGGGUUUUUGGGGAAAGGGGAAAGUAUUAUGUUACGCCGUUCGGAUCUGCACU | 1.44
UGCCUCCCUGCUGCAGAAAUACACCGACAACAGCGAGAAGCCAUCCGGGAAGAGACUGUGCAAAACCAAACACUUGAUCCCUCAGGAGUC | -0.962
GGCAAGAGGAGGAACGACGUAGAAGAGAGGAAGAGAUGAUGAUUCGUCAACGUGAGAUGGAAGAACAAAUGAGGCGCCAAAGAGAGGAAA | -0.483
